{"data": "Results from different studies", "note": "Protocols differ between the studies behind these lines. Values joined by “and” are separate records of one study, mostly repeats; a detail may differ. Numbers after ± are the reported error.", "UniProt Q61206, sequence (whole entry, looked up)": "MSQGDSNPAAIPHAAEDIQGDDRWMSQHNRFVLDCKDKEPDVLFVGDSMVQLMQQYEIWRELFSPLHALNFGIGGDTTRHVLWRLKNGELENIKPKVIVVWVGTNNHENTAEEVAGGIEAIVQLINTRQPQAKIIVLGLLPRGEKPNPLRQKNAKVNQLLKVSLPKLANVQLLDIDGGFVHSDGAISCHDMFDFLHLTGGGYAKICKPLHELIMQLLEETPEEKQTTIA", "UniProt P09619, sequence (whole entry, looked up)": "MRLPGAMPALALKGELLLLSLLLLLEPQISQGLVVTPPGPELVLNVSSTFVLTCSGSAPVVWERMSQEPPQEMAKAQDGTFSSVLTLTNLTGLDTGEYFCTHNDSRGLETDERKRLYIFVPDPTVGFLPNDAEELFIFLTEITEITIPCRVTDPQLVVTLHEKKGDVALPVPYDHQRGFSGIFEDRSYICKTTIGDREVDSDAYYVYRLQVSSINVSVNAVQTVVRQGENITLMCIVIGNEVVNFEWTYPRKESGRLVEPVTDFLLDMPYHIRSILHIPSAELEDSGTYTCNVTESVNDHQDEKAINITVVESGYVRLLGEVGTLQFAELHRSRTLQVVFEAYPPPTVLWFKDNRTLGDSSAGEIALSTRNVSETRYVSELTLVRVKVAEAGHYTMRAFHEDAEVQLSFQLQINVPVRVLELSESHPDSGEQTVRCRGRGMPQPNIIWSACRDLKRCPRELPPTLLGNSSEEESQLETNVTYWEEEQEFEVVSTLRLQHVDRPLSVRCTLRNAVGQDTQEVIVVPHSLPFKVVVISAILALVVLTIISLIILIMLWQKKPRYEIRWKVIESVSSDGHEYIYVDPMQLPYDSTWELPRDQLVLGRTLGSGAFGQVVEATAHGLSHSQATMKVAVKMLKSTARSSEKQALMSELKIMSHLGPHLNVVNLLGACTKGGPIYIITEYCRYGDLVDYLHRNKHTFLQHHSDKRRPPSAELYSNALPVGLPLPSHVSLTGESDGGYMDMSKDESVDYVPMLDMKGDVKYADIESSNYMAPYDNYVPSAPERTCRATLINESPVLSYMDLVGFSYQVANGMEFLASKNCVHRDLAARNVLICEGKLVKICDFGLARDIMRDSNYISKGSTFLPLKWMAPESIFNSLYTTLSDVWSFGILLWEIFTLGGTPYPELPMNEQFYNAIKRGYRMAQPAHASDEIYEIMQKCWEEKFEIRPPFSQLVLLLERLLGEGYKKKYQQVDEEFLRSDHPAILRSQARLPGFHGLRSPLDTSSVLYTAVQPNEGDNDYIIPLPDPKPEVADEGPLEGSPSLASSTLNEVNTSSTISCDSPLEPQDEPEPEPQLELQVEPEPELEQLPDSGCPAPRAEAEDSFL"}
{"SMILES": "CC(=O)NCCCC[C@@H]1NC(=O)[C@H](Cc2c[nH]c3c(C)cccc23)NC(=O)[C@H]([C@@H](C)O)NC(=O)[C@H](CC(N)=O)NC(=O)[C@@H](NC(C)=O)C(C)(C)SSC(C)(C)[C@@H](C(=O)N[C@@H](Cc2ccc(OCCN)cc2)C(=O)N[C@@H](Cc2ccc3ccccc3c2)C(=O)NC2(C(=O)N[C@@H](CCC(=O)O)C(=O)N[C@@H](CC(N)=O)C(=O)N[C@@H](Cc3cccnc3)C(=O)N(C)CC(N)=O)CCOCC2)NC1=O", "target or system": "human alpha-1-acid glycoprotein 0.14%", "test": "equilibrium dialysis", "conditions": "0.1 µM", "endpoint": "protein binding", "value": "8.53 ± 0.73%"}
{"SMILES": "O=C1NC(=O)c2c1c1cc(F)c[n+]3c1c1c2c2cc(O)ccc2[n]1[Ru-4]312([N]=C=S)[S+]3CC[S+]1CC[S+]2CC3 (stereo not shown)", "target or system": "ABL1 (Homo sapiens, UniProt P00519, H396P)", "test": "enzyme activity", "conditions": "100 nM, human enzyme, together with: 10 µM ATP", "scale": "reference: untreated", "endpoint": "remaining activity", "value": "96%"}
{"SMILES": "CC[C@H](C)[C@H](NC(=O)[C@H](CCCNC(=N)N)NC(=O)[C@H](CO)NC(=O)[C@H](Cc1ccc(O)cc1)NC(=O)[C@@H](NC(=O)[C@@H](NC(=O)[C@H](C)NC(=O)CNC(=O)[C@H](CCCCN)NC(=O)[C@H](CCCCN)NC(=O)CCNC(=O)CCCCCNC(=O)[C@H](CCCNC(=N)N)NC(=O)CCCCCNC(=O)[C@H](CCCNC(=N)N)NC(=O)[C@H](CCCNC(=N)N)NC(=O)CCCCCNC(=O)[C@H](CCCNC(=N)N)NC(=O)[C@H](CCCNC(=N)N)NC(=O)CCCCCNC(=O)[C@H](CCCNC(=N)N)NC(=O)[C@H](CCCNC(=N)N)NC(=O)CCCCCNC(=O)[C@@H](N)CCCNC(=N)N)C(C)C)[C@@H](C)O)C(=O)N[C@@H](CO)C(=O)NCC(=O)N[C@@H](CCC(N)=O)C(=O)N[C@@H](Cc1ccc(O)cc1)C(=O)N[C@@H](CCCCN)C(=O)O", "test": "broth microdilution", "test system": "29213, Mueller-Hinton broth", "conditions": "16 to 18 h, 37 °C", "endpoint": "MIC", "value": "24 µM"}
{"SMILES": "Cc1cc(C(=O)Nc2nc3cccc(C)c3n2[C@H]2CCCCN(C(=O)/C=C/CN(C)C)C2)ccn1", "target or system": "Trypanosoma brucei", "test system": "STIB795, mouse acute HAT model", "conditions": "oral, 25 mg/kg once daily for 4 days, day 31", "scale": "reference: mice", "endpoint": "survival", "value": "16.7%"}
{"SMILES": "CCCCCC1=C(NCC)C(=O)C(C/C=C(\\C)CCC=C(C)C)=C(O)C1=O", "test": "RNA-seq GSEA, refers to: HALLMARK_INTERFERON_ALPHA_RESPONSE", "test system": "mouse, A53T α-synuclein lesioned, striatum", "conditions": "dose not given", "scale": "reference: untreated A53T lesioned mice, direction not given", "endpoint": "normalised enrichment score", "value": 3.27}
{"SMILES": "CN(CCO)CCO.O=C(O)C(Cl)Cl", "target or system": "Chenopodium album", "test": "herbicidal activity", "conditions": "15 mg/mL, 21 days, post-emergence greenhouse", "endpoint": "inhibition", "value": "-54%"}
{"SMILES": "CC(C)CC(O)(CC(C)C)c1cn(C(=O)N2CCCC2)nn1", "target or system": "Platelet-activating factor acetylhydrolase IB subunit alpha2 (Mus musculus, UniProt Q61206)", "test": "probe labelling, inhibitor, competitive ABPP-SILAC, refers to: Pafah1b2", "test system": "mouse T cells", "conditions": "concentration not given, 4 h, single peptide", "scale": "reference: treated over DMSO cells, lower = stronger inhibition", "endpoint": "SILAC activity ratio", "value": "1.24 and 1.29 and 1.16 and 1.1"}
{"SMILES": "Nc1ncc(-c2cc(-c3cnn(CC(F)(F)F)c3)ncc2F)nc1C(=O)NC1CNCC(F)C1 (stereo not shown)", "target or system": "ABL1(F317I)-phosphorylated", "test": "KINOMEscan competition binding", "conditions": "1 µM", "scale": "reference: DMSO control", "endpoint": "remaining binding", "value": "99%"}
{"SMILES": "O=C(C[Se]C(=O)c1cccs1)Nc1cccc(C(F)(F)F)c1", "target or system": "NCI60 breast subpanel mean", "test": "cell growth", "endpoint": "TGI", "value": "4.11 µM"}
{"SMILES": "CC(C)CC(C(=O)N1CC2(CC1C#N)C(=O)Nc1ccccc12)N(C)C(=O)c1cc2c(F)cc(F)c(F)c2[nH]1 (stereo not shown)", "target or system": "Human coronavirus 229E", "test": "cytopathic effect", "test system": "MRC5", "conditions": "36.82 nM", "endpoint": "inhibition", "value": "104%"}
{"SMILES": "Cc1ccc(N2CC3CC(C2)N3C)cc1C(=O)NC1(c2ccc3c4c(cccc24)C(=O)N3C)CC1", "target or system": "PDCoV-PLpro", "test": "enzyme activity, inhibitor", "conditions": "100 µM", "endpoint": "inhibition", "value": "57.9% and 47.8%"}
{"SMILES": "CC1(C)CC(=O)C2=C(C1)Oc1ccccc1C2C1C(=O)NC(=O)NC1=O (stereo not shown)", "target or system": "3T3-L1", "test": "cell growth or viability, MTT", "conditions": "72 h", "endpoint": "IC20", "value": "47.4 µg/mL"}
{"SMILES": "COc1cc2c(cc1NC(=O)c1cncn1C)C[C@H]1[C@H]3CCCC[C@@]23CCN1C", "test": "equilibrium dialysis", "test system": "mouse plasma", "conditions": "5 µM, 6 h", "endpoint": "unbound fraction", "value": 0.602}
{"SMILES": "CC[C@H](C)[C@H](NC(=O)[C@H](CO)NC(=O)[C@H](Cc1ccc(O)cc1)NC(=O)[C@H](Cc1ccc(O)cc1)NC(=O)[C@H](CC(N)=O)NC(=O)CNC(=O)[C@H](CO)NC(=O)[C@H](Cc1ccc(O)cc1)NC(=O)[C@H](CO)NC(=O)[C@H](CO)NC(=O)[C@H](CC(N)=O)NC(=O)COCCOCCNC(=O)CN1CCN(CC(=O)O)CCN(CC(=O)O)CCN(CC(=O)O)CC1)C(=O)N[C@@H](CC(C)C)C(N)=O [copper-64 labelled]", "test": "dynamic PET", "test system": "tamoxifen-induced PDAC mouse model, metastases", "conditions": "0 min, CLDN4-expressing tumours", "endpoint": "maximum metastasis uptake", "value": "0 %IA/cc"}
{"SMILES": "CCN(CC)C(=O)[C@@H]1C=C2c3cccc4c3c(cn4C(=O)c3ccco3)C[C@H]2N(C)C1", "test": "magnetometer", "test system": "C57BL/6J mouse, male", "conditions": "intraperitoneal, 0.125 mg/kg, 30 min session", "endpoint": "head-twitch response count", "value": 14.8}
{"SMILES": "COc1ccccc1-c1n[nH]c2nc(N[C@H]3CC[C@H](NS(=O)(=O)CC(C)C)CC3)ncc12", "test": "bead binding, competition bead pull-down, refers to: LINJ.30.0990", "test system": "Leishmania donovani extract", "conditions": "10 µM", "scale": "reference: vehicle", "endpoint": "relative abundance", "value": 1.05}
{"SMILES": "CC(C)(C)C(=O)OCOP(=O)(OCOC(=O)C(C)(C)C)C1CCCN(O)C1=O (stereo not shown)", "target or system": "SNB-19", "endpoint": "TGI", "value": "28.7 µM"}
{"SMILES": "CN(C)[C@H]1C[C@@]23CC[C@@]4(O2)C(=CC[C@]2(C)[C@@H](c5ccc6ccncc6c5)CC[C@H]24)C=C3[C@@H](O)[C@@H]1O", "target or system": "CDK2 (Homo sapiens, UniProt P24941)", "test": "ATP probe labelling, inhibitor, KiNativ profiling", "conditions": "0.1 µM", "endpoint": "inhibition", "value": "-2.4%"}
{"SMILES": "Cc1ccc(NS(=O)(=O)c2c(C(=O)N3CCCCCC3)c(C)n(C)c2C)c(Cl)c1", "target or system": "Human alphaherpesvirus 1", "test": "viral infection", "test system": "HaCaT", "conditions": "0.4115 µM, 36 h", "scale": "reference: untreated", "endpoint": "infection", "value": "98% and 97.5% and 107%"}
{"SMILES": "O=C(O)c1ccc(-c2nc(-c3ccccc3Cl)c3sccn23)cc1", "target or system": "K562", "test": "megakaryocyte differentiation, flow cytometry", "conditions": "0.1 mM, 72 h", "endpoint": "CD61-positive cells", "value": "8.6% and 11.8%"}
{"SMILES": "O=C(C[Se]C(=O)c1ccco1)Nc1cccc(C(F)(F)F)c1", "target or system": "NCI60 non-small-cell lung subpanel", "test": "cell growth", "conditions": "10 µM, 48 h, one-dose", "endpoint": "mean growth percent", "value": "-22.1%"}
{"SMILES": "CS(C)(=O)=Nc1ccc(-c2ccc(-c3nc4cc(O[C@@H]5CO[C@H]6[C@@H]5OC[C@H]6O)[nH]c4cc3F)cc2)cc1", "target or system": "PDGFRB (Homo sapiens, UniProt P09619)", "test": "enzyme activity, inhibitor", "conditions": "10 µM", "endpoint": "inhibition", "value": "6%"}
{"SMILES": "CCN(CC)C(=O)[C@@H]1C=C2c3cccc4c3c(cn4C(=O)c3cccs3)C[C@H]2N(C)C1", "test": "magnetometer", "test system": "C57BL/6J mouse, male", "conditions": "intraperitoneal, 3 mg/kg, 30 min session", "endpoint": "head-twitch response count", "value": 48.4}
{"SMILES": "CC[C@H]1OC(=O)[C@H](C)[C@@H](OC(=O)Cc2ccccc2)[C@H](C)[C@@H](O[C@@H]2O[C@H](C)C[C@H](N(C)C)[C@H]2O)[C@](C)(OC)C[C@@H](C)C(=O)[C@H](C)[C@@H](O)[C@]1(C)O", "target or system": "Escherichia coli ribosome", "test": "in vitro transcription-translation, inhibitor", "endpoint": "IC50", "value": "0.83 µM"}
{"SMILES": "CN1C(=O)C(C2C3=C(CCCC3=O)Oc3ccc(Br)cc32)C(=O)N(C)C1=O (stereo not shown)", "target or system": "3T3-L1", "test": "cell growth or viability, MTT", "conditions": "72 h", "endpoint": "IC20", "value": "26.8 µg/mL"}
{"SMILES": "CC(=O)N[C@@H](CC(C)C)C(=O)N[C@H](C(=O)N[C@@H](Cc1ccccc1)C(=O)N[C@]1(C)CCCCCC/C=C/CCC[C@@](C)(C(=O)N[C@@H](C)C(=O)N[C@@H](C)C(=O)N[C@@H](C)C(=O)N[C@@H](C)C(=O)N[C@@H](C)C(=O)N[C@H](C)C(N)=O)NC(=O)[C@H](CC(C)C)NC(=O)[C@H](CCCCNC(=O)CCNC(=O)C[C@@H]2N=C(c3ccc(Cl)cc3)c3c(sc(C)c3C)-n3c(C)nnc32)NC(=O)[C@H](C)NC(=O)[C@H](Cc2c[nH]c3ccccc23)NC(=O)[C@H](Cc2ccc(O)cc2)NC(=O)[C@H](C)NC1=O)[C@@H](C)O", "test": "equilibrium dialysis", "test system": "mouse plasma", "conditions": "2 µM, 6 h, 37 °C", "endpoint": "unbound fraction", "value": "2.71% and 2.7%"}
{"SMILES": "CC(C)[C@H]1NC(=O)C[C@H]2/C=C/CCSSC[C@@H](NC1=O)C(=O)N[C@H](Cc1cccc3ccccc13)C(=O)NCC(=O)O2", "target or system": "EGFR (Homo sapiens, UniProt P00533, L858R)", "test": "enzyme activity, inhibitor", "conditions": "10 µM", "endpoint": "inhibition", "value": "-3.5%"}
{"SMILES": "O=C1NC2(CC2)COc2ncc(F)cc2[C@H]2COCCN2c2ccn3ncc1c3n2", "test system": "Sprague-Dawley rat, female, kidneys", "conditions": "oral, 10 mg/kg/day, 4 weeks, end of treatment", "endpoint": "organ-to-brain weight ratio", "value": "107 ± 10.3%"}
{"SMILES": "C#CCNC(=O)C1(O/N=C(\\C(=O)N[C@@H]2C(=O)N(OS(=O)(=O)O)C2(C)C)c2csc(N)n2)CC1", "target or system": "Enterobacter aerogenes", "test": "agar dilution", "test system": "ATCC 13048 susceptible", "endpoint": "MIC", "value": "4 µg/mL"}
{"SMILES": "COc1ccccc1-c1n[nH]c2nc(NC3CCN(C(=O)Cc4ccc(F)cc4F)CC3)ncc12", "test": "bead binding, competition bead pull-down, refers to: LINJ.35.3900", "test system": "Leishmania donovani axenic amastigote extract", "conditions": "10 µM", "scale": "reference: vehicle", "endpoint": "relative abundance", "value": 0.84}
{"SMILES": "Cc1cc(Oc2nc(N3CC[C@@H](c4ccncc4)C3)ncc2F)[nH]n1", "target or system": "Mycobacterium tuberculosis", "test": "OD", "test system": "H37Rv PurF CRISPRi knockdown", "conditions": "4e-06 µM, together with: anhydrotetracycline low", "endpoint": "normalised growth", "value": "100% and 99%"}
{"note": "A few entries again:"}
{"SMILES": "Cc1cc(C(=O)Nc2nc3cccc(C)c3n2[C@H]2CCCCN(C(=O)/C=C/CN(C)C)C2)ccn1", "target or system": "Trypanosoma brucei", "test system": "STIB795, mouse acute HAT model", "conditions": "oral, 25 mg/kg once daily for 4 days, day 31", "scale": "reference: mice", "endpoint": "survival", "value": "16.7%"}
{"SMILES": "CCCCCC1=C(NCC)C(=O)C(C/C=C(\\C)CCC=C(C)C)=C(O)C1=O", "test": "RNA-seq GSEA, refers to: HALLMARK_INTERFERON_ALPHA_RESPONSE", "test system": "mouse, A53T α-synuclein lesioned, striatum", "conditions": "dose not given", "scale": "reference: untreated A53T lesioned mice, direction not given", "endpoint": "normalised enrichment score", "value": 3.27}
{"SMILES": "CN(CCO)CCO.O=C(O)C(Cl)Cl", "target or system": "Chenopodium album", "test": "herbicidal activity", "conditions": "15 mg/mL, 21 days, post-emergence greenhouse", "endpoint": "inhibition", "value": "-54%"}
